Experimental data gathered from unrelated publications.
Protocols differ between the studies behind these lines. Several values in a cell are separate wells, animals, samples, runs or records. ± marks the error that the study gave.

| Compound | target or system | assay | test system | setting | how to read | endpoint | result |
| --- | --- | --- | --- | --- | --- | --- | --- |
| N#C[C@@H]1CC(F)(F)CN1C(=O)CNC(=O)c1ccnc2c(NC(=O)[C@H](CCCCNC(=O)CCOCCOCCOCCOCCOCCOCCNC(=O)CN3CCN(CC(=O)[O-])CCN(CC(=O)[O-])CCN(CC(=O)[O-])CC3)NC(=O)CCCc3ccc(I)cc3)cccc12.[177Lu+3] | U-87 MG tumour model |  | host not given, liver | 1 h, tumour-bearing |  | tracer uptake | 7.12 %ID/g |
| Cc1cc(=O)c2c(O)c3c(O[C@@H]4O[C@H](CO)[C@@H](O)[C@H](O)[C@H]4O)cc(O)cc3cc2o1 | HK-2 co-cultured with HepaRG | MTT |  | 16.67 µM, 48 h | reference: untreated control | cell viability | 90.3 ± 4.81% |
| O=C1NC2(CC2)COc2ncc(F)cc2[C@H]2COCCN2c2ccn3ncc1c3n2 | CHL cells | chromosomal aberration test |  | 5 µg/mL, 24 h, without S9 mix | reference: solvent control | relative population doubling | 59.1% |
| CC(C)Cc1ccc(C(C)C(=O)N[C@@H](CCCCNC(=O)CCOCCOCCOCCOCCOCCOCCNC(=O)CN2CCN(CC(=O)[O-])CCN(CC(=O)[O-])CCN(CC(=O)[O-])CC2)C(=O)Nc2cccc3c(C(=O)NCC(=O)N4CC(F)(F)C[C@H]4C#N)ccnc23)cc1.[177Lu+3] (stereo partly drawn) | U-87 MG tumour model |  | host not given, muscle | 1 h, tumour-bearing |  | tracer uptake | 3.31 %ID/g |
| CNC(=O)C1CCCN(C(=O)C2CC3CCC2N3C(=O)[C@@H]2C[C@@H](O)CN2C(=O)NCc2cccc(Cl)c2F)C1 (mixture of isomers) | CYP3A4 (human) | inhibitor, time-dependent inhibition |  | 50 µM, preincubated without NADPH, with: testosterone substrate | reference: negative control | remaining activity | 101% |
| CCN(CC)CC#CCNc1ccnc2cc(Cl)ccc12 | Salmonella typhimurium | mini-Ames test | TA97a | 1000.0 µg/well, without S9 |  | revertants per well | 0 |
| N=C(N)NCCC[C@@H]1NC(=O)[C@H](CCCNC(=N)N)NC(=O)[C@@H](C(c2ccccc2)c2ccccc2)NC(=O)[C@H](Cc2c[nH]c3ccccc23)NC(=O)[C@@H](C(c2ccccc2)c2ccccc2)NC(=O)[C@@H](CCCNC(=N)N)NC(=O)[C@@H](CCCNC(=N)N)NC1=O | human liver cells | MTS |  | 100 µg/mL, 24 h |  | viability | > 90% |
| CCCC[C@@H](CSS(=O)(=O)O)NCCC | Schistosoma mansoni | perfusion day 62 | infected Swiss Webster mice | 100 mg/kg |  | body weight | 31.2 g and 34.7 g and 32.2 g |
| N#C[C@@H]1CCCN1C(=O)CNC(=O)c1ccnc2ccc(OCCCN3CCN(C(=O)CCc4ccc5c(c4)CN4CCN6CC(=O)[O][68Ga-]([O]C(=O)C4)([O]5)[O]c4ccc(CCC(=O)N5CCN(CCCOc7ccc8nccc(C(=O)NCC(=O)N9CCC[C@H]9C#N)c8c7)CC5)cc4C6)CC3)cc12 | U-87 MG tumour model |  | host not given, muscle | 1 h, tumour-bearing |  | tracer uptake | 1.82 %ID/g |
| O=C1C2CC3CC1CC(C(=O)N1CCN(c4ccc([N+](=O)[O-])c5ncccc45)CC1)(C3)C2 | Salmonella typhimurium | Ames test | TA98 | 0.78 µg/well, with S9 | reference: vehicle | revertant fold increase | 1.1 |
| CCCCCC[C@H](CSS(=O)(=O)O)NC1CCCCC1 | Schistosoma mansoni | perfusion day 57 | infected Swiss Webster mice | 100 mg/kg |  | body weight | 30.7 g and 29.5 g |
| CC(C)OCCOCc1ccc(OCC(O)CN(N=O)C(C)C)cc1 (stereo not drawn) | Salmonella typhimurium | Ames test | TA1535 | 15.8 µg/plate, 30 % hamster S9 | reference: solvent control | revertant fold increase | 1.5 fold |

Some of these lines once more:
| Compound | target or system | assay | test system | setting | how to read | endpoint | result |
| --- | --- | --- | --- | --- | --- | --- | --- |
| O=C1NC2(CC2)COc2ncc(F)cc2[C@H]2COCCN2c2ccn3ncc1c3n2 | CHL cells | chromosomal aberration test |  | 5 µg/mL, 24 h, without S9 mix | reference: solvent control | relative population doubling | 59.1% |
| CC(C)Cc1ccc(C(C)C(=O)N[C@@H](CCCCNC(=O)CCOCCOCCOCCOCCOCCOCCNC(=O)CN2CCN(CC(=O)[O-])CCN(CC(=O)[O-])CCN(CC(=O)[O-])CC2)C(=O)Nc2cccc3c(C(=O)NCC(=O)N4CC(F)(F)C[C@H]4C#N)ccnc23)cc1.[177Lu+3] (stereo partly drawn) | U-87 MG tumour model |  | host not given, muscle | 1 h, tumour-bearing |  | tracer uptake | 3.31 %ID/g |
